Results of several laboratories.
Each line is one published result; not all experiments were run side by side.
DRD3: D(3) dopamine receptor (DRD3, Homo sapiens, UniProt P35462)
Sequence of UniProt P35462 (whole entry, looked up): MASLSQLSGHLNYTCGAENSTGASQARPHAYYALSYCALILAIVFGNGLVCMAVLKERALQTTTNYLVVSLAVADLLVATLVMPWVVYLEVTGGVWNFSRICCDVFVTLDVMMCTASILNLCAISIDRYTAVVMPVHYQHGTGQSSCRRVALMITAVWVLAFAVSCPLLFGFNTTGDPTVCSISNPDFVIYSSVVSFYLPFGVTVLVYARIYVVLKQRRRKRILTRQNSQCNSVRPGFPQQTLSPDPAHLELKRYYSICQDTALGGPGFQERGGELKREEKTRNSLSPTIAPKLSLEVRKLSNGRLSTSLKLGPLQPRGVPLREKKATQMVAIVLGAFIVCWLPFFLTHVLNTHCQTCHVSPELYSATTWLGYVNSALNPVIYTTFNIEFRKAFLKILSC
Trypsin: Trypsin (Sus scrofa, UniProt P00761)
Sequence of UniProt P00761 (whole entry, looked up): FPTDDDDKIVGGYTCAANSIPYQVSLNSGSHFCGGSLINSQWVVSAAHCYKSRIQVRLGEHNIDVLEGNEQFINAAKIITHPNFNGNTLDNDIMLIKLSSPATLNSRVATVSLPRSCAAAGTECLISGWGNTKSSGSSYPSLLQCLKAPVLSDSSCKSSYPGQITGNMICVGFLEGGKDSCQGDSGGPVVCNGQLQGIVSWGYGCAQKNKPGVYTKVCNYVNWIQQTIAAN
FOLH1: Glutamate carboxypeptidase 2 (FOLH1, Homo sapiens, UniProt Q04609)
Sequence of UniProt Q04609 (whole entry, looked up): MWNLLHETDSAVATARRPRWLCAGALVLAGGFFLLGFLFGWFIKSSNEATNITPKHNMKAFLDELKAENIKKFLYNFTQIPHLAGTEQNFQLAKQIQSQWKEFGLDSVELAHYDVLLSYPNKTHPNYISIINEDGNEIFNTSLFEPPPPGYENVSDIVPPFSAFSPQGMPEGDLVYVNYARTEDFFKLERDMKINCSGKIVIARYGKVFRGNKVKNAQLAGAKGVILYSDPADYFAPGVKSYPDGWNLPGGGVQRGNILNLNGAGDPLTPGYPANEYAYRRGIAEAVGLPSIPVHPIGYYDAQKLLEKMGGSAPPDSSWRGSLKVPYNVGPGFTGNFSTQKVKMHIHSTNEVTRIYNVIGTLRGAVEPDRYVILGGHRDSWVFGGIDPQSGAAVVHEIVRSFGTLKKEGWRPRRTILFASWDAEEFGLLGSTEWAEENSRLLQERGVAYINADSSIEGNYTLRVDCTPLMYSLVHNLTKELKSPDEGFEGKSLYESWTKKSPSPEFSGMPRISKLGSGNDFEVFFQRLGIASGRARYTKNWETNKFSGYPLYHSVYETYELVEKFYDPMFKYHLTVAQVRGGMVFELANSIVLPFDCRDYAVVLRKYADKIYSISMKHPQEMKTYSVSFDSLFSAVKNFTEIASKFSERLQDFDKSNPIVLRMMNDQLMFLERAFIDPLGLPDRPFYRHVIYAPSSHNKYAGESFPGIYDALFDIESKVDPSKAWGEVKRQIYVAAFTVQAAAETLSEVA
LCK: Tyrosine-protein kinase Lck (LCK, Homo sapiens, UniProt P06239)
Sequence of UniProt P06239 (whole entry, looked up): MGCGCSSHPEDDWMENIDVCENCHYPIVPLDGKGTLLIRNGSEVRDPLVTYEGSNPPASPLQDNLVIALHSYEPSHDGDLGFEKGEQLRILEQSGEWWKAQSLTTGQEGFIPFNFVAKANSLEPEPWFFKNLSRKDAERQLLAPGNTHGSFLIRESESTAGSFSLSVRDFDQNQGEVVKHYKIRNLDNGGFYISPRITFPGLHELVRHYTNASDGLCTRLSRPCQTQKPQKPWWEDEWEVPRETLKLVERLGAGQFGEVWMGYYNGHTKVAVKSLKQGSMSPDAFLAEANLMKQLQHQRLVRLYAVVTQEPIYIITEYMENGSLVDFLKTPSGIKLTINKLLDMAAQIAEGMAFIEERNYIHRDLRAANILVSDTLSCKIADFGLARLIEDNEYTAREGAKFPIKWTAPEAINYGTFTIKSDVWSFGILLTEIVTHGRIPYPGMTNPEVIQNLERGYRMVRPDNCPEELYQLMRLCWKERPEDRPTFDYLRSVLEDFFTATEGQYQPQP
Sequence of UniProt P00519 (whole entry, looked up): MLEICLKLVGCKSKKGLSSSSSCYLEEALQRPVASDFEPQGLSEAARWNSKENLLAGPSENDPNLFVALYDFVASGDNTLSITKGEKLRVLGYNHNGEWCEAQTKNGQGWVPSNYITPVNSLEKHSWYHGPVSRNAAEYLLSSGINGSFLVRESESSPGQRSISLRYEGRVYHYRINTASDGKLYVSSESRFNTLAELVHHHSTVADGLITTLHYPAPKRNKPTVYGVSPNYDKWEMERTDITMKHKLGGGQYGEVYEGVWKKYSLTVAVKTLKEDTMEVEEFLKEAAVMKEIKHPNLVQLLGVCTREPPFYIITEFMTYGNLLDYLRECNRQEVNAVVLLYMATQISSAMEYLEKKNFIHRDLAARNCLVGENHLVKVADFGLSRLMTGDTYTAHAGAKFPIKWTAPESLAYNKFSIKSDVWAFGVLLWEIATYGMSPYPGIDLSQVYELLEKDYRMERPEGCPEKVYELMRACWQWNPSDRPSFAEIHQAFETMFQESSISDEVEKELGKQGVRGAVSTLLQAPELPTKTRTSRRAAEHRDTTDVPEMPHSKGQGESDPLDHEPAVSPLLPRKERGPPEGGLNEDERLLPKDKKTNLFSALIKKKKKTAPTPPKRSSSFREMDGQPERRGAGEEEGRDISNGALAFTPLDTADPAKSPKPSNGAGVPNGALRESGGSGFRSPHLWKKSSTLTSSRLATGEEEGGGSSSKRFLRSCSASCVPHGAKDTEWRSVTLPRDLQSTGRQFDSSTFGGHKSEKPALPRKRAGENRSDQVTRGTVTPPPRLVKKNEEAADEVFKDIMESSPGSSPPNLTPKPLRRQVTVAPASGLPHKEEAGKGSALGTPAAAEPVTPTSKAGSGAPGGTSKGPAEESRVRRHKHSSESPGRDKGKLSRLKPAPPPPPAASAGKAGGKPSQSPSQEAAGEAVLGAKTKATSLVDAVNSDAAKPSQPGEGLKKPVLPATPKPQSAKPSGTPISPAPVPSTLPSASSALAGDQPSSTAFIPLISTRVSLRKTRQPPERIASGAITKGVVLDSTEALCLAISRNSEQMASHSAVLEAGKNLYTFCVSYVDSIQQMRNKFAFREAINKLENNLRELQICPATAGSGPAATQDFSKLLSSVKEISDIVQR
Sequence of UniProt P35367 (whole entry, looked up): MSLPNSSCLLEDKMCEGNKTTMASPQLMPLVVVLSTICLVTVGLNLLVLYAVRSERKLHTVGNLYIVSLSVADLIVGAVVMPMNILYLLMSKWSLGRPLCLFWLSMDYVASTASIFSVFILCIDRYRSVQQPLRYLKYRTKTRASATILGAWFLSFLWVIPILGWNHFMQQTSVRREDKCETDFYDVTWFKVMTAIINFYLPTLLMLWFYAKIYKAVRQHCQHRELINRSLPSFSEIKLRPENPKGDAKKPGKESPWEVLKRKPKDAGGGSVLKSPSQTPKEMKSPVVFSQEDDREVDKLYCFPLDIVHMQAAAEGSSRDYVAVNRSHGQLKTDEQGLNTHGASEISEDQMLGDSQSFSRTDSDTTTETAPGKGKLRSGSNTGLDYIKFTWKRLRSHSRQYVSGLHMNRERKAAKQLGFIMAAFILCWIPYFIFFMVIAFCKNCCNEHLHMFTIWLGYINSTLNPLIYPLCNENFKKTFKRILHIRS

| Compound | tested on | test | system | conditions | measurement | result |
| --- | --- | --- | --- | --- | --- | --- |
| O=C(c1ccc([C@H]2[C@@H](F)[C@@H](F)C[C@@H](F)[C@H]2F)cc1)N1CCCC1 | – | liver microsome stability | rat liver microsomes | 1 µM | hepatic clearance | 46 mL/min/kg |
| CC1Cc2ccccc2N1C(=O)CN1CCN(c2ccccc2)CC1 (stereo not shown) | DRD3 | ligand displacement, radioligand | – | – | Ki | > 10 µM |
| CC(C)Oc1ccc(B(O)O)c(F)n1 | Trypsin | enzyme activity, inhibitor | – | – | Ki | > 5000 µM |
| c1ccc2c(c1)OC[C@@H](CNCc1cccc3cccnc13)O2 | DRD3 | ligand displacement, radioligand | – | – | Ki | 0.275 µM |
| CC1Cc2ccccc2N1C(=O)CN1CCN(Cc2ccccc2)CC1 (stereo not shown) | DRD3 | ligand displacement, radioligand | – | – | Ki | 6.9 µM |
| O=C([O-])CN1CCN(CC(=O)O)C[C@H](Cc2ccc(NC(=S)NCCCCC(NC(=O)CCCCCCC(=O)NCCCC[C@H](NC(=O)N[C@@H](CCC(=O)O)C(=O)O)C(=O)O)C(=O)O)cc2)N(CC(=O)[O-])Cc2cccc(n2)C1.[Cu+2] (stereo partly shown) | FOLH1 | enzyme activity, inhibitor, fluorescence | – | lysate | Ki | 0.0108 µM |
| CN1CC[C@@H](COc2cnc(C#N)cc2-c2ccn3nc(NC(=O)C4CC4)cc3c2)C1 | LCK | enzyme activity, inhibitor | – | – | Ki | 0.415 µM |
| Cn1ccc2c(N3CCN(CCCCOc4ccc5c(c4)NC(=O)CC5)CC3)cccc21 | HRH1 (Homo sapiens, UniProt P35367) | ligand displacement, radioligand | – | – | Ki | 0.089 µM |
| F[C@@H]1[C@H](c2ccc(-c3cncnc3)cc2)[C@H](F)[C@H](F)C[C@@H]1F | – | liver microsome stability | rat liver microsomes | 1 µM | hepatic clearance | 27 mL/min/kg |
| COCCNCc1ccc(-c2cc(Cl)cc(Cl)c2)o1 | DRD3 | ligand displacement, radioligand | – | – | Ki | 0.158 µM |
| CCOc1cnc(C#N)cc1-c1ccn2nc(NC(=O)C3CC3)cc2c1 | LCK | enzyme activity, inhibitor | – | – | Ki | 0.0318 µM |
| O=C1CCc2c(ccc3ccccc23)O1 | CA2 (Homo sapiens, UniProt P00918) | enzyme activity, inhibitor, stopped-flow | – | – | Ki | 41 µM |
| CC[C@H](C)[C@H](NC(=O)[C@@H](NC(=O)[C@H](CO)NC(=O)[C@@H](NC(=O)[C@@H]1CCCN1C(=O)[C@H](CC(C)C)NC(=O)[C@H](CCCNC(=N)N)NC(=O)[C@H](CO)NC(=O)[C@H](CC(N)=O)NC(=O)[C@H](C)N)[C@@H](C)O)[C@@H](C)CC)C(=O)O | Na(+)/H(+) exchange regulatory cofactor NHE-RF2 (Homo sapiens, UniProt Q15599) | ligand displacement, FP | – | – | Ki | > 1000 µM |
| CC(C)NCc1ccc(-c2cc(Cl)ccc2Cl)o1 | DRD3 | ligand displacement, radioligand | – | – | Ki | 0.141 µM |
| C=CS(=O)(=O)Oc1ccc(OC)c(-c2c[nH]c3ncc(-c4cncc(C(=O)N(C)C)c4)cc23)c1 | ABL1 (Homo sapiens, UniProt P00519) | covalent inhibitor, intact protein MS | – | time-dependent labelling | Ki | 0.19 µM |
| OC(CN1CCN(c2nsc3ccccc23)CC1)c1cccs1 (stereo not shown) | DRD3 | ligand displacement, radioligand | – | – | Ki | 0.16 µM |
| OB(O)c1cnn(-c2cc(Cl)ncn2)c1 | Trypsin | enzyme activity, inhibitor, absorbance | – | – | Ki | 1310 µM |
| O=C(O)CC[C@H](NC(=O)N[C@@H](CCCCNC(=O)CCCCCCC(=O)N[C@@H](CCCCNC(=O)C(Cc1ccccc1)NC(=O)C(Cc1ccccc1)NC(=O)CN1CCN(CC(=O)O)CCN(CC(=O)O)CCN(CC(=O)O)CC1)C(=O)O)C(=O)O)C(=O)O (stereo partly shown) | FOLH1 | enzyme activity, inhibitor, fluorescence | – | lysate | Ki | 0.0111 µM |
| C[C@H](O)CNCc1ccc(-c2cc(Cl)ccc2Cl)o1 | DRD3 | ligand displacement, radioligand | – | – | Ki | 0.12 µM |

Excerpt of the above:
| Compound | tested on | test | system | conditions | measurement | result |
| --- | --- | --- | --- | --- | --- | --- |
| OC(CN1CCN(c2nsc3ccccc23)CC1)c1cccs1 (stereo not shown) | DRD3 | ligand displacement, radioligand | – | – | Ki | 0.16 µM |
| C=CS(=O)(=O)Oc1ccc(OC)c(-c2c[nH]c3ncc(-c4cncc(C(=O)N(C)C)c4)cc23)c1 | ABL1 (Homo sapiens, UniProt P00519) | covalent inhibitor, intact protein MS | – | time-dependent labelling | Ki | 0.19 µM |
